Experimental data collected from several papers.
Protocols differ between the studies behind these lines.
GLP1R: Glucagon-like peptide 1 receptor (GLP1R, Homo sapiens, UniProt P43220)
DCN1-like protein 1: DCN1-like protein 1 (Homo sapiens, UniProt Q96GG9)

| Compound | target | test | test system | setting | endpoint | result |
| --- | --- | --- | --- | --- | --- | --- |
| CC[C@H](C)[C@H](NC(=O)[C@H](Cc1ccccc1)NC(=O)[C@H](CCC(=O)O)NC(=O)[C@H](CCCNC(=N)N)NC(=O)[C@H](C)NC(=O)[C@H](C)NC(=O)[C@H](CCC(N)=O)NC(=O)[C@H](CCC(=O)O)NC(=O)[C@H](CCC(=O)O)NC(=O)[C@H](CC(C)C)NC(=O)[C@H](Cc1ccc(O)cc1)NC(=O)[C@H](CO)NC(=O)[C@H](CO)NC(=O)[C@@H](NC(=O)[C@H](CC(=O)O)NC(=O)[C@H](CO)NC(=O)[C@@H](NC(=O)[C@H](Cc1ccccc1)NC(=O)[C@@H](NC(=O)CNC(=O)[C@H](CCC(=O)O)NC(=O)[C@H](C)NC(=O)CCc1cnc[nH]1)[C@@H](C)O)[C@@H](C)O)C(C)C)C(=O)N[C@@H](C)C(=O)N[C@@H](Cc1c[nH]c2ccccc12)C(=O)N[C@@H](CC(C)C)C(=O)N[C@H](C(=O)N[C@@H](CCCNC(=N)N)C(=O)NCC(=O)N[C@@H](CCCNC(=N)N)C(=O)N[C@@H](CCCCNC(=O)COCCOCCNC(=O)COCCOCCNC(=O)CC[C@H](NC(=O)CCCCCCCCCCCCCCCCC(=O)O)C(=O)O)C(=O)NCC(=O)NCC(=O)N[C@@H](CO)C(=O)N[C@@H](CCSC)C(=O)N[C@H](C(=O)N[C@@H](CCCCNc1c(NCCCCCN(O)C(=O)CCC(=O)NCCCCCN(O)C(=O)CCC(=O)NCCCCCN(O)C(C)=O)c(=O)c1=O)C(=O)O)C(C)C)C(C)C | GLP1R | cAMP reporter gene, agonist, CRE luciferase | BHK | without Zr, 1% HSA | EC50 | 0.00016 µM |
| COc1cc(Nc2ncc(F)c(Nc3ccc4c(n3)NC(=O)C(C)(C)O4)n2)cc(OC)c1OC | NOS2 (Homo sapiens, UniProt P35228) | enzyme activity, inhibitor | – | – | IC50 | > 10 µM |
| Cc1nn(-c2ccccc2)c2c1[C@H](c1ccsc1C)[C@H](NC(=O)c1cccc(C(F)(F)F)c1)C(=O)N2 | DCN1-like protein 1 | – | – | – | IC50 | > 15 µM |
| CC(=O)c1cc(O)c2ccccc2c1O | Genome polyprotein, NS5 methyltransferase domain (pol, Dengue virus type 3, UniProt Q6YMS4) | – | – | – | Kd | 4.6 µM |
| Cc1nn(-c2ccccc2)c2c1[C@H](c1ccc(F)cc1)[C@H](NC(=O)c1cccc(C(F)(F)F)c1)C(=O)N2CCNS(C)(=O)=O | DCN1-like protein 1 | – | – | – | IC50 | > 15 µM |
| CC[C@H](C)[C@H](NC(=O)[C@H](Cc1ccccc1)NC(=O)[C@H](CCC(=O)O)NC(=O)[C@H](CCCNC(=N)N)NC(=O)[C@H](C)NC(=O)[C@H](C)NC(=O)[C@H](CCC(N)=O)NC(=O)[C@H](CCCCNc1c(NCCCCCN(O)C(=O)CCC(=O)NCCCCCN(O)C(=O)CCC(=O)NCCCCCN(O)C(C)=O)c(=O)c1=O)NC(=O)[C@H](CCC(=O)O)NC(=O)[C@H](CC(C)C)NC(=O)[C@H](Cc1ccc(O)cc1)NC(=O)[C@H](CO)NC(=O)[C@H](CO)NC(=O)[C@H](CCCCNc1c(NCCCCCN(O)C(=O)CCC(=O)NCCCCCN(O)C(=O)CCC(=O)NCCCCCN(O)C(C)=O)c(=O)c1=O)NC(=O)[C@H](CC(=O)O)NC(=O)[C@H](CO)NC(=O)[C@@H](NC(=O)[C@H](Cc1ccccc1)NC(=O)[C@@H](NC(=O)CNC(=O)[C@H](CCC(=O)O)NC(=O)[C@H](C)NC(=O)CCc1cnc[nH]1)[C@@H](C)O)[C@@H](C)O)C(=O)N[C@@H](C)C(=O)N[C@@H](Cc1c[nH]c2ccccc12)C(=O)N[C@@H](CC(C)C)C(=O)N[C@H](C(=O)N[C@@H](CCCNC(=N)N)C(=O)NCC(=O)N[C@@H](CCCNC(=N)N)C(=O)N[C@@H](CCCCNC(=O)COCCOCCNC(=O)COCCOCCNC(=O)CC[C@H](NC(=O)CCCCCCCCCCCCCCCCC(=O)O)C(=O)O)C(=O)O)C(C)C | GLP1R | cAMP reporter gene, agonist, CRE luciferase | BHK | with Zr, 0% HSA | EC50 | 0.00011 µM |
| C[C@H]1CN(c2n[nH]c3nc(N[C@H]4CC[C@H](NS(=O)(=O)CCC(F)(F)F)CC4)ncc23)CCO1 | Exportin-1 (XPO1, Homo sapiens, UniProt O14980) | biochemical | – | – | IC50 | ≥ 20 µM |
| CCN1C(=O)[C@@H](N)[C@@H](c2ccc(F)cc2)c2c(C)nn(-c3ccccc3)c21 | DCN1-like protein 1 | – | – | – | IC50 | > 15 µM |
| CC[C@H](C)[C@H](NC(=O)[C@H](Cc1ccccc1)NC(=O)[C@H](CCC(=O)O)NC(=O)[C@H](CCCNC(=N)N)NC(=O)[C@H](C)NC(=O)[C@H](C)NC(=O)[C@H](CCC(N)=O)NC(=O)[C@H](CCC(=O)O)NC(=O)[C@H](CCC(=O)O)NC(=O)[C@H](CC(C)C)NC(=O)[C@H](Cc1ccc(O)cc1)NC(=O)[C@H](CO)NC(=O)[C@H](CO)NC(=O)[C@H](CCCCNc1c(NCCCCCN(O)C(=O)CCC(=O)NCCCCCN(O)C(=O)CCC(=O)NCCCCCN(O)C(C)=O)c(=O)c1=O)NC(=O)[C@H](CC(=O)O)NC(=O)[C@H](CO)NC(=O)[C@@H](NC(=O)[C@H](Cc1ccccc1)NC(=O)[C@@H](NC(=O)CNC(=O)[C@H](CCC(=O)O)NC(=O)[C@H](C)NC(=O)CCc1cnc[nH]1)[C@@H](C)O)[C@@H](C)O)C(=O)N[C@@H](C)C(=O)N[C@@H](Cc1c[nH]c2ccccc12)C(=O)N[C@@H](CC(C)C)C(=O)N[C@H](C(=O)N[C@@H](CCCCNc1c(NCCCCCN(O)C(=O)CCC(=O)NCCCCCN(O)C(=O)CCC(=O)NCCCCCN(O)C(C)=O)c(=O)c1=O)C(=O)NCC(=O)N[C@@H](CCCNC(=N)N)C(=O)N[C@@H](CCCCNC(=O)COCCOCCNC(=O)COCCOCCNC(=O)CC[C@H](NC(=O)CCCCCCCCCCCCCCCCC(=O)O)C(=O)O)C(=O)O)C(C)C | GLP1R | cAMP reporter gene, agonist, CRE luciferase | BHK | without Zr, 0% HSA | EC50 | 0.00012 µM |

For quick reference, copied from above:
| Compound | target | test | test system | setting | endpoint | result |
| --- | --- | --- | --- | --- | --- | --- |
| Cc1nn(-c2ccccc2)c2c1[C@H](c1ccc(F)cc1)[C@H](NC(=O)c1cccc(C(F)(F)F)c1)C(=O)N2CCNS(C)(=O)=O | DCN1-like protein 1 | – | – | – | IC50 | > 15 µM |
| Cc1nn(-c2ccccc2)c2c1[C@H](c1ccsc1C)[C@H](NC(=O)c1cccc(C(F)(F)F)c1)C(=O)N2 | DCN1-like protein 1 | – | – | – | IC50 | > 15 µM |
